Values quoted from earlier work as cited in several papers.
Protocols differ between the studies behind these lines. Numbers after ± are the reported error. Converted amounts (≈) assume the structure as drawn.
Sequence of UniProt O35627 (whole entry, unmodified, looked up): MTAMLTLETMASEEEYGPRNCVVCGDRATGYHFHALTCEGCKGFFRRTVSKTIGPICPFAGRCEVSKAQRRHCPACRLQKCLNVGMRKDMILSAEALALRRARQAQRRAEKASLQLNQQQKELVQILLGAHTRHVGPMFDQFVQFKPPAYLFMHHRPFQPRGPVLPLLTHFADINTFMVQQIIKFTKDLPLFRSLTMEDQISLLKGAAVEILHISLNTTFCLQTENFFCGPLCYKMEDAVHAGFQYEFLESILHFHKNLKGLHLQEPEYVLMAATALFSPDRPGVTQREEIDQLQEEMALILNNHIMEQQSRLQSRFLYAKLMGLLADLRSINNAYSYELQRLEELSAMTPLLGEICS

Compound	tested on	assay	system	setting	scale	measurement	result
C[C@H]1c2cccc(O)c2C(=O)C2=C(O)[C@]3(O)C(=O)C(C(N)=O)=C(O)[C@@H](N(C)C)[C@@H]3[C@@H](O)[C@@H]21	Brugia malayi	Wolbachia depletion above 90%	SCID mouse	exposure equivalent to human 100 mg/day	–	treatment duration	6 week
CC1CS(=O)(=O)CCN1/N=C/c1ccc([N+](=O)[O-])o1 (centres unmarked)	Trypanosoma evansi	–	Tansui	–	–	IC50	2.62 ± 1.4 µM
CC(=O)c1cccc(N[C@H]2[C@H](N)[C@@](NC(=O)N(C)C)([C@H](C)O)[C@@](C)(O)[C@@]2(O)COC(=O)c2c(C)cccc2O)c1	M14	–	–	–	–	GI50	0.12 µM
C[C@](C#N)(COc1cc(C#N)ccc1C(F)(F)F)NC(=O)c1ccc(SC(F)(F)F)cc1	gastrointestinal nematodes	–	resistant to benzimidazoles or levamisole, sheep	oral, dose not given	–	efficacy	> 95%
Cc1cc(Nc2ccc(C(F)(F)F)cc2)n2ncnc2n1	Plasmodium berghei	–	mouse	oral, 50 mg/kg 1 times daily for 4 days	–	parasitaemia suppression	71%
Clc1cc(Br)ccc1-c1ccc(CNCC2CCNCC2)o1	Trypanosoma brucei rhodesiense	–	STIB 900	–	–	IC50	0.1 µM
O=C(N[C@@H](Cn1ccnc1)c1ccc(Cl)cc1Cl)c1ccc(-c2nnc(-c3ccccc3)o2)cc1	Trypanosoma cruzi	–	Tulahuen, mouse, Chagas disease model	dose not given	–	survival	100%
CCCCc1cc2c(=O)c(C(=O)OC)c[nH]c2cc1OCCOc1ccccc1	Plasmodium cynomolgi	–	sporozoite, rhesus monkey	7 days	–	curative dose	15 mg/kg
CN1CCN(C(=O)N[C@@H](Cc2ccccc2)C(=O)N[C@H](/C=C/S(=O)(=O)c2ccccc2)CCc2ccccc2)CC1	Trypanosoma brucei	parasite growth	–	–	–	GI50	7 µM
CC1(C)C(C=C(Cl)Cl)C1C(=O)OCc1cccc(Oc2ccccc2)c1 (centres unmarked)	Anopheles funestus	–	FUMOZ-R	–	relative to: FUMOZ-R over Anopheles gambiae Kisumu	resistance ratio	11.5
Nc1nc2c(nc(Sc3ccc(Cl)cc3)n2C2OC3COP(O)(=S)OC3C2O)c(=O)[nH]1 (centres unmarked)	PDE2A	cyclic nucleotide hydrolysis, substrate or inhibitor, isothermal titration calorimetry	–	–	–	Km or Ki	52.9 µM
CC[C@H](C)[C@H](NC(=O)[C@H](CCCCN)NC(=O)[C@H](Cc1c[nH]cn1)NC(=O)[C@@H](N)CCCNC(=N)N)C(=O)N[C@@H](CC(C)C)C(=O)N[C@@H](Cc1c[nH]cn1)C(=O)N[C@@H](CCCNC(=N)N)C(=O)N[C@@H](CC(C)C)C(=O)N[C@@H](CC(C)C)C(=O)N[C@@H](CCC(N)=O)C(=O)N[C@@H](CCC(=O)O)C(=O)NCC(=O)N[C@@H](CO)C(=O)O	Nuclear receptor subfamily 1 group I member 3, with RXR (Mus musculus, UniProt O35627)	binding, isothermal titration calorimetry	–	pH 7.2, 25°C	–	ΔG	-7.2 kcal/mol
NCCCC(N)(C(=O)O)C(F)F (centres unmarked)	Trypanosoma brucei gambiense	cell growth	IL1922	–	–	IC50	36.7 ± 12.9 µM
C[C@H](CCC(=O)O)[C@H]1CC[C@H]2[C@@H]3[C@@H](O)C[C@@H]4C[C@H](O)CC[C@]4(C)[C@H]3CC[C@]12C	Clostridioides difficile	spore germination	NAP1	20 min, with: taurocholate 2000 µM	–	complete inhibition concentration	500 µM
Cc1cc(Nc2ccc(C)c(Cl)c2)n2nc(C(F)(F)F)nc2n1	Trypanosoma brucei rhodesiense	–	STIB 900	–	–	IC50	15.9 µM
Clc1ccc(COC(Cn2ccnc2)c2ccc(Cl)cc2Cl)c(Cl)c1 (centres unmarked)	Candida albicans	measured: YDC1	–	concentration not given	relative to: untreated	fold change	2.1 fold
N=C(N)c1ccc(OCCCCCOc2ccc(C(=N)N)cc2)cc1	Trypanosoma evansi	cell growth	Tansui	–	–	IC50	0.00097 ± 0.00019 µM
O=C(Nc1ncnc2c1ncn2[C@@H]1O[C@@H]2COP(=O)(O)OC2C1O)c1ccccc1 (stereo in doubt)	PDE4D	cyclic nucleotide hydrolysis, substrate or inhibitor, isothermal titration calorimetry	–	–	–	Km or Ki	49 µM
C[C@]12CCC[C@@H]1[C@H]1CCc3cc(O)ccc3[C@@H]1CC2 (single isomer, unassigned)	HT-22	cell protection	–	with: iodoacetic acid 40 µM	–	EC50	0.129 µM
CC(C)c1cnn2c(NCc3ccccc3-n3cccn3)nc(OC3CCCNC3)nc12 (centres unmarked)	human cytomegalovirus	viral replication	–	–	–	EC50	0.009 µM
Cc1ccc(C(=O)Nc2ccc(S(=O)(=O)O)c3cc(S(=O)(=O)O)cc(S(=O)(=O)O)c23)cc1NC(=O)c1cccc(NC(=O)Nc2cccc(C(=O)Nc3cc(C(=O)Nc4ccc(S(=O)(=O)O)c5cc(S(=O)(=O)O)cc(S(=O)(=O)O)c45)ccc3C)c2)c1	Trypanosoma congolense	–	IL3000	–	–	IC50	7.17 ± 0.87 µM
Cc1ccc(C(=O)c2oc3ccc4c(C)cc(=O)oc4c3c2C)cc1	Trypanosoma brucei brucei	–	Squib 427	–	–	IC50	> 32 µM
C[C@]12CC[C@@H]3c4ccc(O)cc4CC[C@H]3[C@@H]1CC[C@H]2O	HT-22	cell protection	–	with: glutamate 20 mM	–	EC50	5.74 µM
CO/N=C1\CN(c2nc3c(cc2F)c(=O)c(C(=O)O)cn3C2CC2)CC1CN (centres unmarked)	Streptococcus pneumoniae	–	–	–	–	MIC90	0.03 µg/mL (≈ 0.077 µM)
FC(F)(F)c1cccc(CNC2CCN(CCc3ccccc3)CC2)c1	Trypanosoma brucei rhodesiense	–	STIB 900	–	–	IC50	1.3 µM
Oc1cccc(-c2nc(N3CCOCC3)c3oc4ncccc4c3n2)c1	phosphatidylinositol 5-phosphate 4-kinase type II beta	enzyme activity, inhibitor	–	with: 10 µM ATP	–	IC50	> 100 µM
